Experimental data collected from several papers.
A part holds a random share of what one study measured.
UniProt P10721, sequence (whole entry, unmodified, looked up): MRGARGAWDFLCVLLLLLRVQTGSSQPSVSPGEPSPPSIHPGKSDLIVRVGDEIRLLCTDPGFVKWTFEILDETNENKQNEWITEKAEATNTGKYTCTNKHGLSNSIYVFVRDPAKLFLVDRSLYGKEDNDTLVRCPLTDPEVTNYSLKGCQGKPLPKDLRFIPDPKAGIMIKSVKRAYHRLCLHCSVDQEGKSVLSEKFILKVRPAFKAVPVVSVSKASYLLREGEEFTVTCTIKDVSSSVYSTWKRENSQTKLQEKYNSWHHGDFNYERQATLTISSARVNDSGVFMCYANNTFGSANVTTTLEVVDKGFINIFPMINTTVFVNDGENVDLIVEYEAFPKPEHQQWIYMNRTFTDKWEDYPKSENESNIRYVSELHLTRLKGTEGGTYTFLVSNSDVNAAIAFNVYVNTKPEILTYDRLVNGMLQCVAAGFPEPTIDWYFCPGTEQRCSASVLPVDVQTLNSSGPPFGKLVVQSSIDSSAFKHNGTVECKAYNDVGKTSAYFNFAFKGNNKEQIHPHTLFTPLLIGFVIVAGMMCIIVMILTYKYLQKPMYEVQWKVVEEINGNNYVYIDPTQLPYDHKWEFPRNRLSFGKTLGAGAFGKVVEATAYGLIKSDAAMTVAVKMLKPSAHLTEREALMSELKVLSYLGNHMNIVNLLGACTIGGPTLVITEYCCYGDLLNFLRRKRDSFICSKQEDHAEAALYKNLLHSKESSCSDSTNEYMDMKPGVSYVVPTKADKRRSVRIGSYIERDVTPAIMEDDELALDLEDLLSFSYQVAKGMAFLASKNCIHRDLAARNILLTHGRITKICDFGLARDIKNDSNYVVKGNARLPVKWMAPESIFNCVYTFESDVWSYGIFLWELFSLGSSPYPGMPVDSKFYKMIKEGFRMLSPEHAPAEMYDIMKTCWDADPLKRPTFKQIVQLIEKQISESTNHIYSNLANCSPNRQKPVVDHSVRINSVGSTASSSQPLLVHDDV
UniProt Q13976, sequence (whole entry, looked up): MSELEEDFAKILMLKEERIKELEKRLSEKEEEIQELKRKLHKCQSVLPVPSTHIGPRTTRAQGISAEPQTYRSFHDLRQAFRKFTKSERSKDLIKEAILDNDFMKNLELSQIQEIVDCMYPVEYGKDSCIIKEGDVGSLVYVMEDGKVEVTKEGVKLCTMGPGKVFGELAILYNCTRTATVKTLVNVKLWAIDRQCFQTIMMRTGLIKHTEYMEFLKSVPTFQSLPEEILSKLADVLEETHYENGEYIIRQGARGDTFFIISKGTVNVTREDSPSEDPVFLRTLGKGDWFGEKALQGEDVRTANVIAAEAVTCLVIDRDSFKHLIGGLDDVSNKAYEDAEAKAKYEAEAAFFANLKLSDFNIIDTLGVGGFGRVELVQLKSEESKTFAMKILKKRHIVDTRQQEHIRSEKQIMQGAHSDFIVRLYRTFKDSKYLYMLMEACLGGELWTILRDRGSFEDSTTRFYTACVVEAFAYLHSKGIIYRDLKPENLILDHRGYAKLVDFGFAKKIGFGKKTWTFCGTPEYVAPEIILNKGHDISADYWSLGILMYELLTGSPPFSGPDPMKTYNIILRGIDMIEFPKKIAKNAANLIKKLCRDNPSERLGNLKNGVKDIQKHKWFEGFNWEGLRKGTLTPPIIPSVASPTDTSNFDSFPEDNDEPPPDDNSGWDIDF
UniProt Q05655, sequence (whole entry, looked up): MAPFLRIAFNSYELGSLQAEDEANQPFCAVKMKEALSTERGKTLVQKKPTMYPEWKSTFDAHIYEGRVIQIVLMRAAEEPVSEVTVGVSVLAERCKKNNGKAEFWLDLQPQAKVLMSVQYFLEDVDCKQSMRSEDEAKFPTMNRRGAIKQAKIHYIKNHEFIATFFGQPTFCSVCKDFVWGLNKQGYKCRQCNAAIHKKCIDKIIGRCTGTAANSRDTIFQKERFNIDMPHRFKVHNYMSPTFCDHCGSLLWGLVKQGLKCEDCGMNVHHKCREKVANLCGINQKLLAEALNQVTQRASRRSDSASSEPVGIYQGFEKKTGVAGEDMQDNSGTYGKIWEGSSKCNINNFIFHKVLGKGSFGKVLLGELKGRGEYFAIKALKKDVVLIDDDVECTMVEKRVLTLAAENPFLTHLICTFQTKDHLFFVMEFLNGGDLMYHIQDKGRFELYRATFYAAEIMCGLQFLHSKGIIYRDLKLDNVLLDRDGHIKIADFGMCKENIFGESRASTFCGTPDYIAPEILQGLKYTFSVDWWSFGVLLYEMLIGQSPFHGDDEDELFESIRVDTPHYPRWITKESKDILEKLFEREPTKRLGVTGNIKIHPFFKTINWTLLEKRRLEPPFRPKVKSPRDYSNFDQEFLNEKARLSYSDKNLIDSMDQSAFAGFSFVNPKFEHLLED
UniProt Q13177, sequence (whole entry, looked up): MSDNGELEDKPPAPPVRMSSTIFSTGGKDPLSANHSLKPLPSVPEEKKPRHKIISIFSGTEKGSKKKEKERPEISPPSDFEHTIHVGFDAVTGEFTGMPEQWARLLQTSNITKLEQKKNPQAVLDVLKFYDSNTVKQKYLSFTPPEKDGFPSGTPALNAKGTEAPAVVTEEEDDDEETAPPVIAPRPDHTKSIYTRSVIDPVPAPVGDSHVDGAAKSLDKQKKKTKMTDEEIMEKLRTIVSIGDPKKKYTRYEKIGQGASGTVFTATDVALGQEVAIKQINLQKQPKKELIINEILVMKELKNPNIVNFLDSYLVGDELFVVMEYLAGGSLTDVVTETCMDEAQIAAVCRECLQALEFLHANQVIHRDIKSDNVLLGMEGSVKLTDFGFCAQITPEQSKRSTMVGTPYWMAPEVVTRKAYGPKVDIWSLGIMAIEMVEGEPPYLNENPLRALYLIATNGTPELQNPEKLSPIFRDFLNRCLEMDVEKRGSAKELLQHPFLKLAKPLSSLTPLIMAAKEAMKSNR
UniProt Q13470, sequence (whole entry, looked up): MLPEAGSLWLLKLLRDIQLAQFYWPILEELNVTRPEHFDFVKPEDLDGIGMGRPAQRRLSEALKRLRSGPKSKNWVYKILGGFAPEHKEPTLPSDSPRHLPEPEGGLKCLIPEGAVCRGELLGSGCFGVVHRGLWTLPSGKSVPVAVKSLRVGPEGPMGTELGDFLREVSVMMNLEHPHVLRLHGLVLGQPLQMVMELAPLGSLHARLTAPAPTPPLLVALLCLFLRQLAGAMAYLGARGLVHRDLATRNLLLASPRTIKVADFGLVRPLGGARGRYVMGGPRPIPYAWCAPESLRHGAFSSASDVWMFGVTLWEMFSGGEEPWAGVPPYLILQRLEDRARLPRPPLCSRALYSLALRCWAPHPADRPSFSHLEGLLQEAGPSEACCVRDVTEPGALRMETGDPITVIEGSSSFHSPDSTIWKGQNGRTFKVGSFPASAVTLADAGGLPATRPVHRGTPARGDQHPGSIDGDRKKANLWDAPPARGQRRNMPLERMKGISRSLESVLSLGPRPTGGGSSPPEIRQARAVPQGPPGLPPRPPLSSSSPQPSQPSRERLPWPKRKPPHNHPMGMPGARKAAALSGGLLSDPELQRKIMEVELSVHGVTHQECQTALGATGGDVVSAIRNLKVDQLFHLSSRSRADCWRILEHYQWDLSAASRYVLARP
UniProt Q96BR1, sequence (whole entry, looked up): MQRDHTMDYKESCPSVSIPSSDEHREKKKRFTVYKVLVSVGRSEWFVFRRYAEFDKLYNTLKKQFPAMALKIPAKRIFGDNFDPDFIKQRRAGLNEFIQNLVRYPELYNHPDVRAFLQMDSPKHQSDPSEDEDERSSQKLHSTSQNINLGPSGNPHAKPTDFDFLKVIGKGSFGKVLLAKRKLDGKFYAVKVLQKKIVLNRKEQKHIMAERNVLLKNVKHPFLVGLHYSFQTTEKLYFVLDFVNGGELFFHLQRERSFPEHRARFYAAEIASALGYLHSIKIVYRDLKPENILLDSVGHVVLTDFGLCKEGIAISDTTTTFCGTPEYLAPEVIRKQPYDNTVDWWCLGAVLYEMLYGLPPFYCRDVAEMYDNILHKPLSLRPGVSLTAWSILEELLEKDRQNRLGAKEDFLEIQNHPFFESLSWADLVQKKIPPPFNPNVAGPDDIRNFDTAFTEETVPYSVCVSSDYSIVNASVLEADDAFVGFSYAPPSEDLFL
UniProt Q9NRH2, sequence (whole entry, looked up): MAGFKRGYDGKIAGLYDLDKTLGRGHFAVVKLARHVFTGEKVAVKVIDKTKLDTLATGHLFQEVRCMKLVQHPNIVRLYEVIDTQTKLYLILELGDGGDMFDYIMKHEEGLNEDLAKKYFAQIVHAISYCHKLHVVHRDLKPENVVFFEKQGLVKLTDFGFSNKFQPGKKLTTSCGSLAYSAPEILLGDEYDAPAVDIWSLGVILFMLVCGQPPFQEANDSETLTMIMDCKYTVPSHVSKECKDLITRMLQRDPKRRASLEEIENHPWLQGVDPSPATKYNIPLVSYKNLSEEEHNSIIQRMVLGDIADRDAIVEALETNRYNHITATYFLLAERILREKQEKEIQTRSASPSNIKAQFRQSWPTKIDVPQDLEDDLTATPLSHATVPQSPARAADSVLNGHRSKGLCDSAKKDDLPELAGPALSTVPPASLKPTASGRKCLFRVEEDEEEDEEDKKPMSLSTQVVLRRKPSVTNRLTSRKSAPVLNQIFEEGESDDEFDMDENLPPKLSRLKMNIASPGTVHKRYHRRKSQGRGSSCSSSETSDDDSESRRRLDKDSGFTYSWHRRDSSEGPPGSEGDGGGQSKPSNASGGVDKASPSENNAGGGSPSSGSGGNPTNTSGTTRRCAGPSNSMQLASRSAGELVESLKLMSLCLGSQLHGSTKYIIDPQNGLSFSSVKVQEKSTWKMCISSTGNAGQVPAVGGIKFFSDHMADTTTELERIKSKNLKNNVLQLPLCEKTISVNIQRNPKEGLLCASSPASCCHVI

Sample 1
SMILES: CC(=O)c1c(NS(C)(=O)=O)c2cc(-c3ccc(Cl)cc3)c(-c3ccc(Cl)cc3Cl)nc2n(C)c1=O
Observed: cell-free assay
Method: competition with immobilised ligand
Tested at: 1 µM
target | remaining binding [%]
FGFR4 (Homo sapiens, UniProt P22455) | 100
RAF1 (Homo sapiens, UniProt P04049) | 100
MAP2K7 (Homo sapiens, UniProt O14733) | 100
STK3 (Homo sapiens, UniProt Q13188) | 100
TNK1 (Homo sapiens, UniProt Q13470) | 100
PRKCD (Homo sapiens, UniProt Q05655) | 98
MAP3K11 (Homo sapiens, UniProt Q16584) | 100
CDKL1 (Homo sapiens, UniProt Q00532) | 91
PRKG1 (Homo sapiens, UniProt Q13976) | 75
PAK2 (Homo sapiens, UniProt Q13177) | 100
Ribosomal protein S6 kinase alpha-3, N-terminal kinase domain (RPS6KA3, Homo sapiens, UniProt P51812) | 75
KIT (Homo sapiens, UniProt P10721, T670I/V559D) | 100
PIK3CD (Homo sapiens, UniProt O00329) | 100
NLK (Homo sapiens, UniProt Q9UBE8) | 72
SNRK (Homo sapiens, UniProt Q9NRH2) | 98
ERBB3 (Homo sapiens, UniProt P21860) | 85
KIT (Homo sapiens, UniProt P10721, L576P) | 99
CSNK1A1 (Homo sapiens, UniProt P48729) | 100
SGK3 (Homo sapiens, UniProt Q96BR1) | 79

Sample 2
Organism: Sarcocystis neurona
Observed: parasite growth
Tested at: 10 µM
Time: 96 h
Notes: first screen
Relative to: untreated
Structure (SMILES) | log2 fold change
CC[C@H]1OC(=O)[C@H](C)C(=O)[C@H](C)[C@@H](O[C@@H]2O[C@H](C)C[C@H](N(C)C)[C@H]2O)[C@](C)(OC)C[C@@H](C)C(=O)[C@H](C)[C@H]2N(CCCCn3cnc(-c4cccnc4)c3)C(=O)O[C@]12C | -0.18
CC(=O)OCC(=O)NCCCOc1cccc(CN2CCCCC2)c1 | -0.09
CC(=O)Nc1ccc(CC(=O)O)cc1 | 0.0654
O=C(CCCN1CC=C(n2c(=O)[nH]c3ccccc32)CC1)c1ccc(F)cc1 | -1.37
Cc1ccc(C)c(OCCCC(C)(C)C(=O)O)c1 | -0.13
CC(=O)/N=c1/sc(S(N)(=O)=O)nn1C | 0.0661
Nc1nc(F)nc2c1ncn2[C@@H]1O[C@H](CO)[C@@H](O)[C@@H]1O | -0.0164
CC(=O)NS(=O)(=O)c1ccc(N)cc1 | 0.2

Sample 3
Compound: O=C1Cc2c([nH]c3ccc(Br)cc23)-c2ccccc2N1
Observed: enzyme activity
Mode: inhibitor
Tested at: 0.5 µM
Relative to: control
target | remaining activity [%]
PRKCD (Homo sapiens, UniProt Q05655) | 92.7
MAP2K6 (Homo sapiens, UniProt P52564) | 95.3
PRKCI (Homo sapiens, UniProt P41743) | 89.1
KIT (Homo sapiens, UniProt P10721) | 90.3
MAP3K10 (Homo sapiens, UniProt Q02779) | 79.3
PLK2 (Homo sapiens, UniProt Q9NYY3) | 99.1
IRAK4 (Homo sapiens, UniProt Q9NWZ3) | 88.2
STK38 (Homo sapiens, UniProt Q15208) | 98.6
MKNK2 (Homo sapiens, UniProt Q9HBH9) | 102
CHEK1 (Homo sapiens, UniProt O14757) | 89
LYN (Homo sapiens, UniProt P07948) | 67.2
BTK (Homo sapiens, UniProt Q06187) | 98
Cyclin-dependent kinase 9, with cyclin T1 (CDK9, Homo sapiens, UniProt P50750) | 31.3
AKT3 (Homo sapiens, UniProt Q9Y243) | 105
MAPK13 (Homo sapiens, UniProt O15264) | 103
LRRK2 (Homo sapiens, UniProt Q5S007) | 78.7
WNK2 (Homo sapiens, UniProt Q9Y3S1) | 112
PRKG1 (Homo sapiens, UniProt Q13976) | 95.9
EPHA5 (Homo sapiens, UniProt P54756) | 96.6
NEK4 (Homo sapiens, UniProt P51957) | 98.9
CSNK2A1 (Homo sapiens, UniProt P68400) | 79.1
MAP4K2 (Homo sapiens, UniProt Q12851) | 20.1

Sample 4
Cell line: HaCaT
Tested at: 100 µM
Time: 18 h
Compound | viability
O=C(C[S+]([O-])Cc1ccco1)NC/C=C\COc1cc(CN2CCCCC2)ccn1 (stereo not drawn) | 112%
c1ccc2c(CC3=NCCN3)cccc2c1 | 107%
Clc1ccccc1CN1CCc2sccc2C1 | 26.2%
C[C@H]1[C@H](OC(=O)CCC(=O)O)O[C@@H]2O[C@@]3(C)CC[C@H]4[C@H](C)CC[C@@H]1[C@@]24OO3 | 86%
CCn1cc(C(=O)O)c(=O)c2cc(F)c(N3CCNC(C)C3)c(F)c21 (stereo not drawn) | 107%
N[C@@H](Cc1cc(I)c(Oc2ccc(O)c(I)c2)c(I)c1)C(=O)O | 74.3%
CCOC(=O)[C@H](CCc1ccccc1)N[C@@H](C)C(=O)N1[C@H](C(=O)O)C[C@@H]2CCC[C@@H]21 | 91.7%
CCN(CC)CCOC(=O)C(c1ccccc1)c1ccccc1 | 89.3%

For quick reference, copied from above (sample 3):
target | remaining activity [%]
PRKG1 (Homo sapiens, UniProt Q13976) | 95.9
EPHA5 (Homo sapiens, UniProt P54756) | 96.6
NEK4 (Homo sapiens, UniProt P51957) | 98.9
CSNK2A1 (Homo sapiens, UniProt P68400) | 79.1
MAP4K2 (Homo sapiens, UniProt Q12851) | 20.1
